Results gathered from unrelated publications.
Protocols differ between the studies behind these lines. ± marks the error that the study gave.
Nuclear receptor subfamily 2 group C member 2 ligand-binding domain: Nuclear receptor subfamily 2 group C member 2, ligand-binding domain (Homo sapiens, UniProt P49116)

Structure (SMILES) = Cc1ccc(O)c(-n2nc3ccccc3n2)c1; test system = human aged 16-21 years; conditions = concentration not given, sunscreen, 95th percentile; quantity = daily dermal exposure dose; value = 3510 ng/kg/day
Structure (SMILES) = O=Cc1ccc(-n2cncn2)cc1; target or system = YWHAG/RELA, phospho-Ser45 p65 peptide (Homo sapiens, UniProt P61981+Q04206); assay = ternary complex formation, stabilizer, fluorescence anisotropy; quantity = EC50; value = > 1000 µM
Structure (SMILES) = Clc1ccc(C(Cn2ccnc2)OCc2ccsc2Cl)c(Cl)c1 (stereo not shown); target or system = Nuclear receptor subfamily 2 group C member 2 ligand-binding domain; assay = binding; quantity = Kd; value = 0.0374 nM
Structure (SMILES) = Cc1nc2cccc(OCC(C)(C)C(=O)NC(C)C)c2c(N)c1C(=O)O; test system = male Swiss albino CD-1 mouse, bone marrow; conditions = oral, 500 mg/kg, 36 h; quantity = micronucleated PCE per 14000 PCE; value = 7
Structure (SMILES) = COC(=O)c1ccc2c(c1)NC(=O)/C2=C(\Nc1ccc(N(C)C(=O)CN2CCN(C)CC2)cc1)c1ccccc1; test system = healthy volunteers, plasma; conditions = oral, 150 mg, together with: pirfenidone; quantity = AUClast; value = 0.185 µg·h/mL
Structure (SMILES) = CC(C)(C(=O)N1CCOc2c(C#N)cncc2C1)C(F)F; assay = refers to: disturbance in attention; test system = human; conditions = oral, 20 mg once daily, 14 days, multiple ascending dose; quantity = subjects with adverse event; value = 0%
Structure (SMILES) = Cc1cc(Nc2cc3ncccc3c(N[C@@H]3C[C@H]4CC[C@@H](C3)N4CCC#N)n2)n[nH]1; test system = healthy human subjects; conditions = oral, 10 mg, 2 weeks, single ascending dose; quantity = sneezing incidence; value = 0%
Structure (SMILES) = O=c1c2ccccc2oc2ccccc12; test system = tricaprin-tricaprylin mixture; conditions = 30 °C, tricaprin fraction 0.17; quantity = solubility; value = 0.04 mole fraction
Structure (SMILES) = CNc1ccc(-c2nc3ccc(O)cc3s2)cc1 [carbon-11 labelled]; assay = microPET/CT imaging; test system = APP/PS1 mouse, AD model, brain; conditions = intravenous, 15 min; quantity = SUV; value = 0.278 ± 0.099
Structure (SMILES) = N#Cc1ccc2c(c1)[C@H]1CCCN(C(=O)c3ccc4[nH]cnc4c3)[C@H]1C2; test system = human males; conditions = 80 mg, day 15; quantity = total testosterone level; value = 12.4 nmol/L
Structure (SMILES) = O=C(O)c1ccc(OS(=O)(=O)O)c(O)c1; test system = human plasma; conditions = mean; quantity = plasma concentration; value = 0.125 µM
Structure (SMILES) = C[C@H]1[C@H](NC(=O)/C(=N\OC(C)(C)C(=O)O)c2csc(N)n2)C(=O)N1S(=O)(=O)O; assay = starch gel membrane permeability; test system = Gram-negative envelope surrogate; conditions = 200 µM, 20 min, pH 7.4; quantity = amount permeated; value = 1.8 nmol
Structure (SMILES) = O=C(N[C@H](Cc1c[nH]c2ccccc12)C(=O)Nc1ccncc1)c1ccc(-c2cc(C(F)(F)F)ccc2F)cc1F; test system = Swiss Webster mouse, female, plasma; conditions = oral, 50 mg/kg, 2 h, 20% HPβCD vehicle; quantity = concentration; value = 0.49 µM
Structure (SMILES) = COc1ccc([C@@H](O)c2cc(-c3ncnc4cc(N5CCOCC5)ccc34)c(F)cc2Cl)nn1; test system = locally advanced rectal cancer patients; conditions = 50 mg, together with: capecitabine and radiotherapy; quantity = drug-related nausea incidence; value = 0%
Structure (SMILES) = O=C(O)c1ccnc(C(=O)O)c1; target or system = OCI-Ly1; conditions = 0.5 µM, 120 h; quantity = viability; value = 144%
Structure (SMILES) = CC[C@H]1OC(=O)[C@H](C)[C@@H](O[C@H]2C[C@@](C)(OC)[C@@H](O)[C@H](C)O2)[C@H](C)[C@@H](O[C@@H]2O[C@H](C)C[C@H](N(C)C)[C@H]2O)[C@](C)(O)C[C@@H](C)C(=O)[C@H](C)[C@@H](O)[C@]1(C)O; assay = starch gel membrane permeability; test system = Gram-negative envelope surrogate; conditions = 200 µM, 10 min, pH 7.4; quantity = amount permeated; value = 0.07 nmol
Structure (SMILES) = CO[C@H]1C[C@@H]2CC[C@@H](C)[C@@](O)(O2)C(=O)C(=O)N2CCCC[C@H]2C(=O)O[C@H]([C@H](C)C[C@@H]2CC[C@@H](O)[C@H](OC)C2)CC(=O)[C@H](C)/C=C(\C)[C@@H](O)[C@@H](OC)C(=O)[C@H](C)C[C@H](C)/C=C/C=C/C=C/1C; test system = healthy adult horses; conditions = oral, 0.06 mg/kg, 48 h; quantity = heart rate; value = 33.5 ± 2.8 beats/min
Structure (SMILES) = CC[C@H](C)[C@H](NC(=O)[C@H](Cc1ccccc1)NC(=O)[C@H](CCC(=O)O)NC(=O)[C@H](CCCCNC(=O)COCCOCCNC(=O)COCCOCCNC(=O)CC[C@H](NC(=O)CCCCCCCCCCCCCCCCC(=O)O)C(=O)O)NC(=O)[C@H](C)NC(=O)[C@H](C)NC(=O)[C@H](CCC(N)=O)NC(=O)CNC(=O)[C@H](CCC(=O)O)NC(=O)[C@H](CC(C)C)NC(=O)[C@H](Cc1ccc(O)cc1)NC(=O)[C@H](CO)NC(=O)[C@H](CO)NC(=O)[C@@H](NC(=O)[C@H](CC(=O)O)NC(=O)[C@H](CO)NC(=O)[C@@H](NC(=O)[C@H](Cc1ccccc1)NC(=O)[C@@H](NC(=O)CNC(=O)[C@H](CCC(=O)O)NC(=O)C(C)(C)NC(=O)[C@@H](N)Cc1cnc[nH]1)[C@@H](C)O)[C@@H](C)O)C(C)C)C(=O)N[C@@H](C)C(=O)N[C@@H](Cc1c[nH]c2ccccc12)C(=O)N[C@@H](CC(C)C)C(=O)N[C@H](C(=O)N[C@@H](CCCNC(=N)N)C(=O)NCC(=O)N[C@@H](CCCNC(=N)N)C(=O)NCC(=O)O)C(C)C; test system = type 2 diabetes patients; conditions = dose not given, hypoglycaemic clamp, nadir PG 5.5 mmol/L; quantity = systolic blood pressure change; value = -1.6 mm Hg
Structure (SMILES) = Oc1ccc([C@H]2COc3cc(O)ccc3C2)cc1; test system = human plasma; conditions = median, both sexes; quantity = plasma concentration; value = 1.29 µM
Structure (SMILES) = Nc1ccccc1NC(=O)CCCCCCC(=O)Nc1ccccc1; target or system = OCI-Ly1; conditions = 0.1 µM, 120 h; quantity = viability; value = 108%
Structure (SMILES) = O=Cc1ccc(O)cc1; test system = human plasma; conditions = mean, both sexes; quantity = plasma concentration; value = 2.04 µM
Structure (SMILES) = COc1ccc2nc([S+]([O-])Cc3ncc(CO)c(OC)c3C)[nH]c2c1 (stereo not shown); test system = human, dried plasma spots; conditions = 4 h, together with: rifampicin pretreatment; scale = reference: induced over baseline; quantity = R/S enantiomer ratio fold change; value = 0.01
Structure (SMILES) = CCn1cc(C)c2c([C@H](O)c3ccc(C(F)(F)F)nc3)n(C)nc2c1=O; test system = rat Sprague-Dawley male, plasma; conditions = intravenous, 1 mg/kg; quantity = CL; value = 2.12 ± 0.127 L/h/kg
Structure (SMILES) = CN1CC2c3ccccc3Oc3ccc(Cl)cc3C2C1 (stereo not shown); target or system = HTR1A (Homo sapiens, UniProt P08908, S199A); assay = agonist; quantity = EC50; value = 0.00676 µM
Structure (SMILES) = COc1cc(C(=O)NC2CCCNC2)cc(OC)c1OC (stereo not shown); target or system = Nuclear receptor subfamily 2 group C member 2 ligand-binding domain; assay = SPR imaging; quantity = Kd; value = 0.0131 nM
